Results from different studies.
Protocols differ between the studies behind these lines. Numbers after ± are the reported error.

Compound	assay	system	setting	tissue uptake
CCCC[C@H](NC(=O)CNC(=O)CNC(=O)CN1CCN(CC(=O)O)CCN(CC(=O)O)CCN(CC(=O)O)CC1)C(=O)N[C@H]1CC(=O)NCCCC[C@@H](C(N)=O)NC(=O)[C@H](Cc2c[nH]c3ccccc23)NC(=O)[C@H](CCCNC(=N)N)NC(=O)[C@@H](Cc2ccccc2)NC(=O)[C@H](Cc2c[nH]cn2)NC1=O [gallium-67 labelled]	–	female C57 mice, B16/F1 melanoma, spleen	intravenous, 0.037 MBq, 0.5 h	1.39 ± 0.13 %ID/g
CCCC[C@H](NC(=O)CN1CCC(NC(=O)CN2CCN(CC(=O)O)CCN(CC(=O)O)CCN(CC(=O)O)CC2)CC1)C(=O)N[C@H]1CC(=O)NCCCC[C@@H](C(N)=O)NC(=O)[C@H](Cc2c[nH]c3ccccc23)NC(=O)[C@H](CCCNC(=N)N)NC(=O)[C@@H](Cc2ccccc2)NC(=O)[C@H](Cc2c[nH]cn2)NC1=O [gallium-68 labelled]	–	male C57BL/6J mice, B16-F10 tumours, muscle	intravenous, 1 h, blocking study, with: 100 µg non-radioactive Ga-peptide	0.9 ± 0.5 %ID/g
N=C(N)NCCC[C@H](NC(=O)CON=C[C@H](F)[C@@H](O)[C@H](O)[C@H](O)CO)C(=O)NCC(=O)N[C@@H](CC(=O)O)C(=O)O [fluorine-18 labelled]	–	nude mice U-87 MG tumour, muscle	intravenous, 0.5 h	0.27 ± 0.07 %ID/g
O=C([O-])CN1CCN(CC(=O)[O-])CCN(CC(=O)[O-])CCN(CC(=O)[O-])CC1.[64Cu+2]	–	healthy athymic nude mice, stomach	intravenous, 24 h	0.35 %ID/g
CC(C)[C@H](NC(=O)[C@@H]1CCCN1C(=O)[C@H](CCCNC(=N)N)NC(=O)[C@H](CS)NC(=O)[C@H](Cc1c[nH]c2ccccc12)NC(=O)[C@H](CCCNC(=N)N)NC(=O)[C@@H](Cc1ccccc1)NC(=O)[C@H](Cc1c[nH]cn1)NC(=O)[C@H](CCC(=O)O)NC(=O)[C@H](CS)NC(=O)[C@H](CS)NC(=O)[C@@H]1CC(=O)N[C@@H](CCCNC(=N)N)C(=O)NCC(=O)N[C@@H](CC(=O)O)C(=O)N[C@H](Cc2ccc(O)cc2)C(=O)N1)C(N)=O [technetium-99m labelled]	–	C57 mice B16/F1 melanoma female, intestines	iv, 0.037 MBq, 2 h	1.76 ± 0.37 %ID
O=C([O-])CN1CCN(CC(=O)[O-])CCN(CC(=O)NCCc2ccc3c(c2)C2C=CCC2C(c2cc4c(cc2Br)OCO4)N3)CCN(CC(=O)[O-])CC1.[111In+3] (stereo not drawn)	–	mice with Hec50 tumour xenograft, uterus	2 h, with: G-1 5 µg blocking	0.31 ± 0.06 %ID/g
CC(C)[C@H](NC(=O)[C@@H]1CCCN1C(=O)[C@H](CCCNC(=N)N)NC(=O)[C@H](CS)NC(=O)[C@H](Cc1c[nH]c2ccccc12)NC(=O)[C@H](CCCNC(=N)N)NC(=O)[C@@H](Cc1ccccc1)NC(=O)[C@H](Cc1c[nH]cn1)NC(=O)[C@H](CCC(=O)O)NC(=O)[C@H](CS)NC(=O)[C@H](CS)NC(=O)CNC(=O)[C@@H]1CC(=O)N[C@@H](CCCNC(=N)N)C(=O)NCC(=O)N[C@@H](CC(=O)O)C(=O)N[C@H](Cc2ccc(O)cc2)C(=O)N1)C(N)=O [technetium-99m labelled]	–	C57 mice B16/F1 melanoma female, kidneys	iv, 0.037 MBq, 0.5 h	33.7 ± 12 %ID/g
O=C([O-])c1cccc(CN(CCN(Cc2cn(Cc3ccccc3)nn2)Cc2cccc(C(=O)[O-])n2)Cc2cn(Cc3ccccc3)nn2)n1.[64Cu+2]	–	healthy athymic nude mice, spleen	intravenous, 15 min	1.5 %ID/g
CCCC[C@@H]1NC(=O)[C@@H](NC(=O)[C@H](CCC(=O)O)NC(=O)CNC(=O)CN2CCN(CC(=O)O)CCN(CC(=O)O)CCN(CC(=O)O)CC2)CCCCNC(=O)C[C@@H](C(N)=O)NC(=O)[C@H](C(C)C)NC(=O)[C@@H]2CCCN2C(=O)[C@H](CCCNC(=N)N)NC(=O)CNC(=O)[C@H](Cc2c[nH]c3ccccc23)NC(=O)[C@H](CCCNC(=N)N)NC(=O)[C@@H](Cc2ccccc2)NC(=O)[C@H](Cc2c[nH]cn2)NC(=O)[C@H](CCC(=O)O)NC1=O [gallium-67 labelled]	–	C57 mice with B16/F1 melanoma, heart	intravenous, 0.5 h	0.29 ± 0.1 %ID/g
CCCC[C@H](NC(=O)CNC(=O)CNC(=O)CN1CCN(CC(=O)O)CCN(CC(=O)O)CC1)C(=O)N[C@H]1CC(=O)NCCCC[C@@H](C(N)=O)NC(=O)[C@H](Cc2c[nH]c3ccccc23)NC(=O)[C@H](CCCNC(=N)N)NC(=O)[C@@H](Cc2ccccc2)NC(=O)[C@H](Cc2c[nH]cn2)NC1=O [gallium-67 labelled]	–	female C57 mice, B16/F1 melanoma, brain	intravenous, 0.037 MBq, 0.5 h	0.21 ± 0.01 %ID/g
CN1C(=O)[C@@H](Cc2ccc(O)c(I)c2)NC(=O)CNC(=O)[C@H](Cc2ccc3ccccc3c2)NC(=O)[C@H](CCCNC(=N)N)NC(=O)[C@H]1CCCNC(=O)c1ccc(CNC(=O)CN2CCN(CC(=O)O)CCN(CC(=O)O)CCN(CC(=O)O)CC2)cc1 [lutetium-177 labelled]	measured: 177Lu radioactivity	female CB-17 SCID mice, Daudi xenograft, heart	intravenous, 0.16 nmol per mouse, 6 h	0.18 ± 0.02 %ID/g
NC12CNCCNCC(NCc3ccc(CNC(=O)CCCC(=O)NCc4ccc(-c5nncnn5)cc4)cc3)(CNCCNC1)CNCCNC2.[64Cu+2]	–	athymic nude mice, SW1222 xenograft, stomach with contents	1 h, pretargeting with huA33-TCO, 24 h interval	0.73 ± 0.19 %ID/g

For quick reference, copied from above:
Compound	assay	system	setting	tissue uptake
CCCC[C@H](NC(=O)CN1CCC(NC(=O)CN2CCN(CC(=O)O)CCN(CC(=O)O)CCN(CC(=O)O)CC2)CC1)C(=O)N[C@H]1CC(=O)NCCCC[C@@H](C(N)=O)NC(=O)[C@H](Cc2c[nH]c3ccccc23)NC(=O)[C@H](CCCNC(=N)N)NC(=O)[C@@H](Cc2ccccc2)NC(=O)[C@H](Cc2c[nH]cn2)NC1=O [gallium-68 labelled]	–	male C57BL/6J mice, B16-F10 tumours, muscle	intravenous, 1 h, blocking study, with: 100 µg non-radioactive Ga-peptide	0.9 ± 0.5 %ID/g
